# Published values pooled from the literature.
# Compare with care: the assays were run in different laboratories. ± marks the error that the study gave.
# nanI: Sialidase (nanI, Clostridium perfringens, UniProt A0A0H2YQR1)
# Polyprotein P1234 nsP2 protease domain: Polyprotein P1234, nsP2 protease domain (Chikungunya virus, UniProt Q5XXP4)
# Chain of UniProt Q5XXP4 (whole entry, looked up): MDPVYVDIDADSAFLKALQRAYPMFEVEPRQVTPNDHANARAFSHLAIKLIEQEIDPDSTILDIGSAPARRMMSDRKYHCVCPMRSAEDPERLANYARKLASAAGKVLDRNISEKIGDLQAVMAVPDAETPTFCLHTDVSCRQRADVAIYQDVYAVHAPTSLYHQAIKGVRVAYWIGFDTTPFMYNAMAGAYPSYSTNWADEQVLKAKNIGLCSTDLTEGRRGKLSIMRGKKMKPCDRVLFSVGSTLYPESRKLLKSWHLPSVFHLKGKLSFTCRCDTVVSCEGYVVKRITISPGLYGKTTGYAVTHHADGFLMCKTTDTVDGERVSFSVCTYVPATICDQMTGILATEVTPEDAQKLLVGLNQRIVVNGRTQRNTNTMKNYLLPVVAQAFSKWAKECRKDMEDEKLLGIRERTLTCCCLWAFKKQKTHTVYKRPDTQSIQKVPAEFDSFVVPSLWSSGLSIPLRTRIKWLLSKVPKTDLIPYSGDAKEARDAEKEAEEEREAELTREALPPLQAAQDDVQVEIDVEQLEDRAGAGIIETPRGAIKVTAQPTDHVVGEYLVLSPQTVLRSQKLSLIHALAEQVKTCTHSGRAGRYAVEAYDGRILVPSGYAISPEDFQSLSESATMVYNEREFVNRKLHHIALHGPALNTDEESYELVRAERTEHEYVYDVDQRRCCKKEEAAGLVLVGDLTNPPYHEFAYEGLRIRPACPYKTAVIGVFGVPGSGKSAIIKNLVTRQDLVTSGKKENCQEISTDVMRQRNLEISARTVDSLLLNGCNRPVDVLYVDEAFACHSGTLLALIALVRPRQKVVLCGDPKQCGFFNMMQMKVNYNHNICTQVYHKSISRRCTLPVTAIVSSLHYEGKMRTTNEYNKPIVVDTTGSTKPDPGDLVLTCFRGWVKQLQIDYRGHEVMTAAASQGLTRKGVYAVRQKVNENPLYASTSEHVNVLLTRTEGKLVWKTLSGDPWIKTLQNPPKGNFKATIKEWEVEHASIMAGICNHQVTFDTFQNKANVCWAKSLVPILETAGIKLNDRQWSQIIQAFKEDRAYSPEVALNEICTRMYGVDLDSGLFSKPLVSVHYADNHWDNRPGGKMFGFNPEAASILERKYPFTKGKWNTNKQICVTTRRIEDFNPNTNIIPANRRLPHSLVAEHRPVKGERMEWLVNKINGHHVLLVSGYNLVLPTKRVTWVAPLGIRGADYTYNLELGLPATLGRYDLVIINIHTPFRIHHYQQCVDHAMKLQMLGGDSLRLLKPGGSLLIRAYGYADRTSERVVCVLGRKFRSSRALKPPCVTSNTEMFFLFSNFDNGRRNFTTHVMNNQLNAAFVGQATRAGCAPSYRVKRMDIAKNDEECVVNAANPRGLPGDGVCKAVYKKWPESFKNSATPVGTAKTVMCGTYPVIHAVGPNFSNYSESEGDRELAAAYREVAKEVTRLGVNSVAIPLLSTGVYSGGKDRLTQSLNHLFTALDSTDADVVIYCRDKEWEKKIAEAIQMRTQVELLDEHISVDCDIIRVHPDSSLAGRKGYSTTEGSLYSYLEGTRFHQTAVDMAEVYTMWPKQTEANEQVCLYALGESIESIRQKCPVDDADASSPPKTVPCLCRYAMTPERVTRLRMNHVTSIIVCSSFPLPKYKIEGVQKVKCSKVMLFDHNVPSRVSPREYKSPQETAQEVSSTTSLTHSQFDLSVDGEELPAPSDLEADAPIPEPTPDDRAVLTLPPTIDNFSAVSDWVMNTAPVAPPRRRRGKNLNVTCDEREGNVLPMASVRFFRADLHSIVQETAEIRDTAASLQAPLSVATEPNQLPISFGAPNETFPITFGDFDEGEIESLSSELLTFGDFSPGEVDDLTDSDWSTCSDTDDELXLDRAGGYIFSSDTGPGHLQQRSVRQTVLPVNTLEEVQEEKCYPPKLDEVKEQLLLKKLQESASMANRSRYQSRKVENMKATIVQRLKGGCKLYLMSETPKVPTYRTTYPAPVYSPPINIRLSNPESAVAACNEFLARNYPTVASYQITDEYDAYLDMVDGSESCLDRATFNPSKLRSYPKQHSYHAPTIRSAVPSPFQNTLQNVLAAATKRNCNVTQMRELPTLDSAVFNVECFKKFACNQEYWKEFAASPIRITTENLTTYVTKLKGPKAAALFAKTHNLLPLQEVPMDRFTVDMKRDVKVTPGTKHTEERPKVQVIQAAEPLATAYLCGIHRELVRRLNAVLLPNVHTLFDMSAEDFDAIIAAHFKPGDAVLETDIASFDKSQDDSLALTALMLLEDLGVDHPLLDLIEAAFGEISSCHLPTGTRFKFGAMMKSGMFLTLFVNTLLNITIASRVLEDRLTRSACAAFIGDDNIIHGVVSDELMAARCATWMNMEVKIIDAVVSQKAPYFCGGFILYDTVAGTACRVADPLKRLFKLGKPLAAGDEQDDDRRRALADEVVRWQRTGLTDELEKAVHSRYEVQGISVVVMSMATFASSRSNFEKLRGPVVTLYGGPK
# HLA class I histocompatibility antigen, A alpha chain allele A*24:02: HLA class I histocompatibility antigen, A alpha chain, allele A*24:02 (Homo sapiens, UniProt P04439)
# HLA class I histocompatibility antigen, A alpha chain allele A*01:01: HLA class I histocompatibility antigen, A alpha chain, allele A*01:01 (Homo sapiens, UniProt P04439)
# Chain of UniProt P02708 (whole entry, looked up): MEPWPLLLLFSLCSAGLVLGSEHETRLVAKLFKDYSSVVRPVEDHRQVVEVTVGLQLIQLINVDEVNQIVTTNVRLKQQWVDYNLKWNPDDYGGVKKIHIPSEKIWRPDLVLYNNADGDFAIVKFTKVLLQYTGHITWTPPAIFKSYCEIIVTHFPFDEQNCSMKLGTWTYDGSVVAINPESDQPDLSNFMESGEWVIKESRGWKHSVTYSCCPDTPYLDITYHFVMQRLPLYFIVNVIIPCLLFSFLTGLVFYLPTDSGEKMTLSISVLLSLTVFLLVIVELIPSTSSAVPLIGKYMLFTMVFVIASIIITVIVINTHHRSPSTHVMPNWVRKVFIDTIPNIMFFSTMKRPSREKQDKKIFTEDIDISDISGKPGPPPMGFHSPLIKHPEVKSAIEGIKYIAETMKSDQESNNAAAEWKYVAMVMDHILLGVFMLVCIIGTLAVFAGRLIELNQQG
# Chain of UniProt P15423 (whole entry, looked up): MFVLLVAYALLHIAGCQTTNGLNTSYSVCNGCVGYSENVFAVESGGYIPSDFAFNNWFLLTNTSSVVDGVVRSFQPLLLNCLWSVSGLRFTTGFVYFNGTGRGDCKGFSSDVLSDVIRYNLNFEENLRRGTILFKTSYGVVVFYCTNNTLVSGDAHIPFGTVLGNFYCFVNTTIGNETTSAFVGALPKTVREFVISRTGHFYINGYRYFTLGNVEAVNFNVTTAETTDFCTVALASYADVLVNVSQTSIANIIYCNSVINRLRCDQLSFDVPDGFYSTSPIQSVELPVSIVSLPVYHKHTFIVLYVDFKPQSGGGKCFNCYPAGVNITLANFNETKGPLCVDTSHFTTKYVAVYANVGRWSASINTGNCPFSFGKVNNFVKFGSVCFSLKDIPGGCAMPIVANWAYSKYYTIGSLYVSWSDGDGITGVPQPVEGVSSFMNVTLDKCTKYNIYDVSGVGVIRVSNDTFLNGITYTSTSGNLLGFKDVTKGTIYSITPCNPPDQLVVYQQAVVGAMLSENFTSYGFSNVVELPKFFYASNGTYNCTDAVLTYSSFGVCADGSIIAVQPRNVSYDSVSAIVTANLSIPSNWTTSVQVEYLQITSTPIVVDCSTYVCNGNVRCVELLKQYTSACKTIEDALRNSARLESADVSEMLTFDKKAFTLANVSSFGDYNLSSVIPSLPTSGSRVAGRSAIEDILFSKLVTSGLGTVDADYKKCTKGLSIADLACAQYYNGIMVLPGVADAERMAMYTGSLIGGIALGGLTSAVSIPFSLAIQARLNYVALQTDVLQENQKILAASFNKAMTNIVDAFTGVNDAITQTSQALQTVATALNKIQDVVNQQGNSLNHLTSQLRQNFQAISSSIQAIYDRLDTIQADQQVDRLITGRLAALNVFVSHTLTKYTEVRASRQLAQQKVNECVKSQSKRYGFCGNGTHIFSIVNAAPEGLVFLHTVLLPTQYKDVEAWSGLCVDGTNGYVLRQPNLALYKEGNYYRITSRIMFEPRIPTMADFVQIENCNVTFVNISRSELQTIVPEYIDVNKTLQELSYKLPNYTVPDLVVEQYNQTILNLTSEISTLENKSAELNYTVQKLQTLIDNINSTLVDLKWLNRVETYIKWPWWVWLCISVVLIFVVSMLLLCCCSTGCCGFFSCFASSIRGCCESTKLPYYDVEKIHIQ
# Chain of UniProt P04756 (whole entry, looked up): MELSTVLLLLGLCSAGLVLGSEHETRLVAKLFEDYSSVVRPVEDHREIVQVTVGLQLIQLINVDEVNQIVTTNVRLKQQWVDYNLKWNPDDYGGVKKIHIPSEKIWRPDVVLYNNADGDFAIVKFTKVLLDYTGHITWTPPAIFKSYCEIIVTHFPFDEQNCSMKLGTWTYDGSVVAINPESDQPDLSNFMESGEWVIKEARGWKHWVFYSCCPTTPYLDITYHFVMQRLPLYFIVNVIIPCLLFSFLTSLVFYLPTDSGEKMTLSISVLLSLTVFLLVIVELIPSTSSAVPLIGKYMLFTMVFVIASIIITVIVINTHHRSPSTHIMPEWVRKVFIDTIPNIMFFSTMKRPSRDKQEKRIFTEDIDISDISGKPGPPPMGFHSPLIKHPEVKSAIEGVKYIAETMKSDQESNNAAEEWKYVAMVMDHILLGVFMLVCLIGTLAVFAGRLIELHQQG
# Chain of UniProt P07510 (whole entry, looked up): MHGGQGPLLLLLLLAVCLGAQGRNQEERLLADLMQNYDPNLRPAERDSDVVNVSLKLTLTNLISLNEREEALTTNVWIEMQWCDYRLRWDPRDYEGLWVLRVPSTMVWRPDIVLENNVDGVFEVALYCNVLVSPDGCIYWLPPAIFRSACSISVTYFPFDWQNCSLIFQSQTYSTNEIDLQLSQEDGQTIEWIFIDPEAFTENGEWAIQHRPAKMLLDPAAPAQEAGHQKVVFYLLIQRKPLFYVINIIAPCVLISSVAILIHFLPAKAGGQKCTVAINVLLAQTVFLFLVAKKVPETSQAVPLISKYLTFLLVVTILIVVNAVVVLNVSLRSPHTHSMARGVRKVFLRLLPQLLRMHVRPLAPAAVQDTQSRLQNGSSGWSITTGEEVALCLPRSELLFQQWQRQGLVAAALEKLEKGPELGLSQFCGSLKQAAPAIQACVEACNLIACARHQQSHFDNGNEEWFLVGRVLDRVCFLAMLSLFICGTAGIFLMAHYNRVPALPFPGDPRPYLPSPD
SMILES,target,test,test system,conditions,IC50 [µM]
Cc1ccc(C(=O)Nc2ccnc(S(N)(=O)=O)c2)c(N2CCCC(F)(F)CC2)n1,"Sodium channel Nav1.8 (Macaca mulatta, UniProt F7CEK9)","TTX-resistant sodium current, manual patch clamp",rhesus DRG neurons,added: 300 nM TTX,0.0093 ± 0.0018
CC(C)Cc1cn([C@H]2[C@H]([C@H](O)[C@H](O)CO)OC(C(=O)O)=C[C@@H]2O)nn1,nanI,"enzyme activity, inhibitor",,,> 500
CC[C@H](C)[C@H](NC(=O)[C@H](CCC(=O)O)NC(=O)[C@H](CCCCN)NC(=O)[C@H](CC(C)C)NC(=O)[C@H](CC(N)=O)NC(=O)[C@@H](NC(=O)[C@H](Cc1ccc(O)cc1)NC(=O)[C@H](CO)NC(=O)[C@H](CCC(=O)O)NC(=O)[C@H](CCC(=O)O)NC(=O)[C@H](CC(C)C)NC(=O)[C@H](CCCCN)NC(=O)[C@H](CCCCN)NC(=O)[C@@H](NC(=O)[C@H](C)NC(=O)[C@H](CCC(=O)O)NC(=O)[C@H](CCC(=O)O)NC(=O)[C@H](CC(C)C)NC(=O)[C@H](CCCCN)NC(=O)[C@H](CCCCN)NC(=O)[C@H](CCSC)NC(=O)[C@H](CCC(=O)O)NC(=O)[C@H](CC(=O)O)NC(=O)[C@H](CCC(=O)O)NC(=O)[C@H](CC(C)C)NC(=O)[C@H](CC(=O)O)NC(=O)[C@H](CC(C)C)NC(=O)[C@H](Cc1ccccc1)NC(=O)[C@@H](NC(=O)[C@@H](NC(=O)[C@H](CC(N)=O)NC(=O)[C@@H](NC(=O)[C@H](Cc1ccc(O)cc1)NC(=O)[C@H](CC(=O)O)NC(=O)[C@H](CC(C)C)NC(=O)[C@@H](N)CO)[C@@H](C)CC)C(C)C)[C@@H](C)O)[C@@H](C)CC)[C@@H](C)CC)C(=O)O,"Spike glycoprotein (S, Human coronavirus 229E, UniProt P15423)",,,,0.22 ± 0.05
N#CC(=Cc1cccc2[nH]nc(C(=O)O)c12)C(=O)NC1CCCC1,Polyprotein P1234 nsP2 protease domain,"protease activity, inhibitor, FRET",,"90 min, 30 min preincubation",> 200
CCC(C(=O)Nc1cc(NC2COC2)ccc1C)n1cc(F)cc2nc(SCc3ccc(F)cc3)nc1-2 (stereo not drawn),"Replicase polyprotein 1ab, papain-like protease (rep, Severe acute respiratory syndrome-related coronavirus, UniProt P0C6X7)",enzyme activity,,,0.416 ± 0.082
COc1cc2c3cc1Oc1cc(ccc1O)C[C@@H]1c4c(cc(OC)c(O)c4Oc4ccc(cc4)C[C@@H]3N(C)CC2)CC[N+]1(C)C,"Chrnd/Chrna1/Chrne (Mus musculus, UniProt P02716+P04756+P20782)","endplate current amplitude, two-electrode voltage clamp","mouse given myasthenia patient IgG 4 d, mouse hemidiaphragm","membrane potential -80 mV, added: paraoxon",0.109
O=c1c(O)c(-c2ccc(O)c(O)c2)oc2cc(O)c(O)c(O)c12,"Replicase polyprotein 1ab, main protease (rep, Severe acute respiratory syndrome-related coronavirus, UniProt P0C6X7)","enzyme activity, inhibitor",,,3.87
CC(=O)N[C@H]1[C@H]([C@H](O)[C@H](O)CO)OC(O)(C(=O)O)C[C@@H]1O (stereo partly drawn),"Spike glycoprotein, with ACE2 (Severe acute respiratory syndrome coronavirus 2, UniProt P0DTC2)",binding to human ACE2,,,0.0191
N#CC(=Cc1cc(Br)c2c(c1)OCCCO2)C(N)=O,Polyprotein P1234 nsP2 protease domain,"protease activity, inhibitor, FRET",,"90 min, 30 min preincubation",> 200
CC[C@H](C)[C@H](NC(=O)[C@@H](NC(=O)[C@@H](N)CCCNC(=N)N)[C@@H](C)O)C(=O)N[C@@H](CCCCN)C(=O)N[C@H](C(=O)N[C@@H](Cc1ccccc1)C(=O)N[C@H](C(=O)N[C@H](C(=O)N[C@H](C(=O)O)C(C)C)[C@@H](C)O)[C@@H](C)O)C(C)C,"HLA class I histocompatibility antigen, A alpha chain (Homo sapiens, UniProt P04439)","binding, competitor",,,12.2
CC[C@H](C)[C@H](NC(=O)[C@H](CC(=O)O)NC(=O)[C@@H](N)C(C)C)C(=O)N[C@@H](CC(N)=O)C(=O)N[C@@H](CCCNC(=N)N)C(=O)N[C@@H](CC(N)=O)C(=O)N[C@@H](CC(N)=O)C(=O)N[C@@H](CCCCN)C(=O)N[C@@H](Cc1ccccc1)C(=O)O,"HLA class I histocompatibility antigen, A alpha chain allele A*24:02",biochemical,,,> 10
C=CS(=O)(=O)CCN1CC(=O)NCC1c1ccccc1 (stereo not drawn),Polyprotein P1234 nsP2 protease domain,"enzyme activity, inhibitor, FRET",,"90 min, 30 min preincubation",1.6 ± 0.2
CC(C)[C@H](N)C(=O)N[C@H](C(=O)N[C@@H](CC(=O)O)C(=O)N[C@H](C(=O)N[C@@H](CC(N)=O)C(=O)N[C@@H](CCCCN)C(=O)N[C@@H](Cc1ccccc1)C(=O)N[C@@H](CC(=O)O)C(=O)N[C@@H](CC(N)=O)C(=O)N[C@@H](Cc1ccc(O)cc1)C(=O)O)[C@@H](C)O)[C@@H](C)O,"HLA class I histocompatibility antigen, A alpha chain allele A*01:01",biochemical,,,0.00097
CCC(CC)[C@H](NC(C)=O)[C@@H]1[C@H](O)[C@@H](C(=O)O)C[C@H]1N=C(N)N,"neuraminidase (Influenza A virus, UniProt G1FHY4)",,,,0.00085
CCC(CC)[C@H](NC(C)=O)[C@@H]1[C@H](O)[C@@H](C(=O)O)C[C@H]1N=C(N)N,"neuraminidase (Influenza A virus, UniProt C6ELZ0)",,human reference strains,mean,0.00026 ± 1e-05
CC[C@H](C)[C@H](NC(=O)[C@H](CC(N)=O)NC(=O)CNC(=O)[C@H](CC(=O)O)NC(=O)[C@H](Cc1ccc(O)cc1)NC(=O)[C@H](Cc1ccc(O)cc1)NC(=O)[C@@H](N)CCCNC(=N)N)C(=O)N[C@@H](Cc1ccc(O)cc1)C(=O)N[C@@H](CCC(=O)O)C(=O)N[C@@H](CC(C)C)C(=O)O,"HLA class I histocompatibility antigen, A alpha chain allele A*24:02",biochemical,,,0.0096
CCCC(C(=O)Nc1cc(NC2CNC2)ccc1C)n1cccc2nc(SCc3ccc(F)cc3)nc1-2 (stereo not drawn),"Replicase polyprotein 1ab, papain-like protease (rep, Middle East respiratory syndrome-related coronavirus, UniProt K9N7C7)","enzyme activity, inhibitor",,,> 100
CC(C)CCC(=O)N[C@H]1[C@H]([C@H](O)[C@H](O)CO)OC(C(=O)O)=C[C@@H]1O,nanI,"enzyme activity, inhibitor",,,> 500
COc1cc(Nc2ncc(F)c(Nc3ccc4c(n3)NC(=O)C(C)(C)O4)n2)cc(OC)c1OC,"CHRNA1/CHRNG/CHRND (Homo sapiens, UniProt P02708+P07510+Q07001)",,,,> 10
CCC(CC)O[C@@H]1C=C(C(=O)O)C[C@H](N)[C@H]1NC(C)=O,"Neuraminidase (Influenza A virus, UniProt I3NP73)","enzyme activity, inhibitor","swine influenza A virus, H1N1pdm09",,0.00031 ± 5e-05
CC(C)[C@H](N)C(=O)N[C@H](C(=O)N[C@@H](CC(=O)O)C(=O)N[C@H](C(=O)N[C@@H](CC(N)=O)C(=O)N[C@@H](CCCCN)C(=O)N[C@@H](Cc1ccccc1)C(=O)N[C@@H](C)C(=O)N[C@@H](Cc1c[nH]cn1)C(=O)N[C@@H](Cc1ccc(O)cc1)C(=O)O)[C@@H](C)O)[C@@H](C)O,"HLA class I histocompatibility antigen, A alpha chain allele A*01:01",biochemical,,,0.0034
CC(C)COc1ncc(C(=O)NCC=CS(C)(=O)=O)cc1Cl,Polyprotein P1234 nsP2 protease domain,"protease activity, inhibitor, FRET",,"90 min, 30 min preincubation",23 ± 2
CC(C)[C@H](NC(=O)[C@@H]1CCCN1C(=O)[C@H](CCC(=O)O)NC(=O)[C@H](CCC(=O)O)NC(=O)[C@H](CO)NC(=O)[C@H](CC(=O)O)NC(=O)CNC(=O)[C@@H](N)Cc1ccccc1)C(=O)N[C@H](C(=O)N[C@@H](Cc1ccc(O)cc1)C(=O)O)[C@@H](C)O,"HLA class I histocompatibility antigen, A alpha chain allele A*01:01",biochemical,,,0.88
CCC(C(=O)Nc1ccccc1OC)n1c(SCc2ccc(F)cc2)nc2ncccc21 (stereo not drawn),"Replicase polyprotein 1ab, papain-like protease (rep, Middle East respiratory syndrome-related coronavirus, UniProt K9N7C7)","enzyme activity, inhibitor",,,> 100
CC(C)[C@H](NC(=O)[C@@H]1CCCN1C(=O)[C@H](CCC(=O)O)NC(=O)[C@H](CCCCN)NC(=O)[C@H](CO)NC(=O)[C@H](CC(=O)O)NC(=O)CNC(=O)[C@@H](N)Cc1ccccc1)C(=O)N1CCC[C@H]1C(=O)N[C@@H](Cc1ccc(O)cc1)C(=O)O,"HLA class I histocompatibility antigen, A alpha chain allele A*01:01",biochemical,,,0.134
CCCCCCCCCCCC(=O)C(F)(F)P(=O)(O)O,"Glycerol-3-phosphate acyltransferase 3 (plsY3, Bacillus anthracis, UniProt Q81Y92)",inhibitor,,,25
C=CS(=O)(=O)CCC(=O)Nc1ccc(-c2nncs2)cc1,Polyprotein P1234 nsP2 protease domain,"enzyme activity, inhibitor, FRET",,"90 min, 30 min preincubation",3.4 ± 0.2
Cn1cnc(Cn2c(=O)[nH]/c(=N\c3cc4cn(C)nc4cc3Cl)n(Cc3cc(F)c(F)cc3F)c2=O)n1,"Cytochrome P450 2D6 (CYP2D6, Homo sapiens, UniProt P10635)",inhibitor,human liver microsomes,"30 min preincubation, preincubation without NADPH, added: dextromethorphan 10 µM",> 100
CCC(C(=O)Nc1cc(NC2CCOC2)ccc1C)n1cc(F)cc2nc(SCc3ccc(F)cc3)nc1-2 (stereo not drawn),"Replicase polyprotein 1ab, papain-like protease (rep, Middle East respiratory syndrome-related coronavirus, UniProt K9N7C7)","enzyme activity, inhibitor",,,> 100
CN(C(=O)CC(C)(C)C)[C@H]1[C@H]([C@H](O)[C@H](O)CO)OC(C(=O)O)=C[C@@H]1O,nanI,"enzyme activity, inhibitor",,,> 500

# A few entries again:
SMILES,target,test,test system,conditions,IC50 [µM]
CC(C)CCC(=O)N[C@H]1[C@H]([C@H](O)[C@H](O)CO)OC(C(=O)O)=C[C@@H]1O,nanI,"enzyme activity, inhibitor",,,> 500
COc1cc(Nc2ncc(F)c(Nc3ccc4c(n3)NC(=O)C(C)(C)O4)n2)cc(OC)c1OC,"CHRNA1/CHRNG/CHRND (Homo sapiens, UniProt P02708+P07510+Q07001)",,,,> 10
CCC(CC)O[C@@H]1C=C(C(=O)O)C[C@H](N)[C@H]1NC(C)=O,"Neuraminidase (Influenza A virus, UniProt I3NP73)","enzyme activity, inhibitor","swine influenza A virus, H1N1pdm09",,0.00031 ± 5e-05
CC(C)[C@H](N)C(=O)N[C@H](C(=O)N[C@@H](CC(=O)O)C(=O)N[C@H](C(=O)N[C@@H](CC(N)=O)C(=O)N[C@@H](CCCCN)C(=O)N[C@@H](Cc1ccccc1)C(=O)N[C@@H](C)C(=O)N[C@@H](Cc1c[nH]cn1)C(=O)N[C@@H](Cc1ccc(O)cc1)C(=O)O)[C@@H](C)O)[C@@H](C)O,"HLA class I histocompatibility antigen, A alpha chain allele A*01:01",biochemical,,,0.0034
